{"data": "Assay results gathered from unrelated publications", "note": "Parts stem from different laboratories: compare values within a part only. Positions count from the first letter of the parent shown."}
{"data": "Study 1", "target": "Muscarinic acetylcholine receptor M3 (CHRM3, Homo sapiens, UniProt P20309)", "observed": "binding", "method": "radioligand binding", "tested at": "10 µM", "chain of UniProt P20309 (whole entry, looked up)": "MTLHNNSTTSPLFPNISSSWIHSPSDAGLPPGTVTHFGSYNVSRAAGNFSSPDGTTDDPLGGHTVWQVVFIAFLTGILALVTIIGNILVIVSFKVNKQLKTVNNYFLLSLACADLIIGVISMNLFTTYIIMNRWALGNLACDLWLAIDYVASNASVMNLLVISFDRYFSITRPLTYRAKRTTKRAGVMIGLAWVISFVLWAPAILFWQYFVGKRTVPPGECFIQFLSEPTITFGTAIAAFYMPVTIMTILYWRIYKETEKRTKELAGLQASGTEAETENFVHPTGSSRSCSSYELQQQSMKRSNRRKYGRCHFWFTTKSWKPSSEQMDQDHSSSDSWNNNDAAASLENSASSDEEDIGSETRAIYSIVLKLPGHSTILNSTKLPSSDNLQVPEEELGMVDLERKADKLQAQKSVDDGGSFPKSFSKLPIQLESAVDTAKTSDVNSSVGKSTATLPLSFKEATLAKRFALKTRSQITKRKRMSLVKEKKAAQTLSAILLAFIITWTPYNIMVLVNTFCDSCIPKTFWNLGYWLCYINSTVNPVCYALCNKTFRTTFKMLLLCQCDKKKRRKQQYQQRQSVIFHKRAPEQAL"}
{"Compound": "CC1=C(C#N)[C@@H](c2ccc3[nH]nc(C)c3c2)C(C#N)=C(c2ccc(Cl)cc2)N1", "inhibition [%]": 8.81}
{"Compound": "CC(=O)N1CCC(c2ccc(C(=O)NC(=N)N)cc2C(F)(F)F)CC1", "inhibition [%]": 12.1}
{"Compound": "Nc1c(C(=O)NCc2ccc(C(=O)NCCCC3CCCCC3)cc2)cnn1-c1ccccc1", "inhibition [%]": 25.2}
{"Compound": "CC(=O)Nc1nc(CN2CCC[C@H](Cc3cc(C)nc(C)c3)C2)cs1", "inhibition [%]": -9.98}
{"Compound": "Cc1c(NC(=O)c2cc(C(N)=O)nc3cc(F)ccc23)c(C(F)(F)F)nn1Cc1ccc(C(C)(C)C)cc1", "inhibition [%]": 1.86}
{"Compound": "COCCc1ccc(-c2c(C)nc3c(N4CCOCC4)ccnn23)cn1", "inhibition [%]": 6.41}
{"Compound": "Cc1nc(N2CC[C@@H](O)C2)ncc1-c1cc(C(F)(F)F)cc2[nH]ncc12", "inhibition [%]": -2.13}
{"Compound": "C[C@@H]1CN(c2cc(-c3nn(C)c4ccc(OC5(C)CC5)cc34)ncn2)C[C@H](C)O1", "inhibition [%]": 6.03}
{"Compound": "CNC(=O)c1ccc(Nc2ncc(C(F)(F)F)c(NCc3nccnc3N(C)S(C)(=O)=O)n2)cc1", "inhibition [%]": 23.8}
{"Compound": "CCCOc1ccc([C@H]2[C@H](C(=O)O)[C@@H](c3ccc4c(c3)OCO4)CN2CC(=O)Nc2c(CC)cccc2CC)cc1", "inhibition [%]": -5.06}
{"Compound": "CNC(=O)Nc1ccc2c(c1)[C@]1(CC2)OC(=O)N(CC(=O)N(Cc2ccc(F)cc2)[C@@H](C)C(F)(F)F)C1=O", "inhibition [%]": 8.23}
{"data": "Study 2", "target": "CCND3, cyclin fold, Cln2 fusion (human)", "method": "yeast growth competition, sequencing", "medium": "yeast", "notes": "weak parent motif", "reference": "not given", "reading": "higher = stronger binding", "starting sequence": "viral docking peptide; TSVRRALFTGGSD; partner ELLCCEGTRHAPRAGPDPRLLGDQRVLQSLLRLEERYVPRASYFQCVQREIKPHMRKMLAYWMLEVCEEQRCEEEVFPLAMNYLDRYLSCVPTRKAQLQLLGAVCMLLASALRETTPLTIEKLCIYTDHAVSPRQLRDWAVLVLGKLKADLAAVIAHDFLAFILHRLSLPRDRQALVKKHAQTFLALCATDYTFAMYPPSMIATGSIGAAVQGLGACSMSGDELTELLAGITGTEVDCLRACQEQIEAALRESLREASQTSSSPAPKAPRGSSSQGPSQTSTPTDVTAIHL"}
{"Substitution": "TSVRRAPFTGGSD [L7P]", "normalised enrichment score": 0.0154}
{"Substitution": "TSVRRALFQGGSD [T9Q]", "normalised enrichment score": -0.394}
{"Substitution": "TSVRKALFTGGSD [R5K]", "normalised enrichment score": 0.454}
{"Substitution": "TSVRNALFTGGSD [R5N]", "normalised enrichment score": 0.227}
{"Substitution": "TSVRRALFYGGSD [T9Y]", "normalised enrichment score": 0.186}
{"Substitution": "TSVRRAKFTGGSD [L7K]", "normalised enrichment score": 0.463}
{"Substitution": "TCVRRALFTGGSD [S2C]", "normalised enrichment score": 0.131}
{"Substitution": "TSVRWALFTGGSD [R5W]", "normalised enrichment score": 0.382}
{"data": "Study 3", "target": "UDP-N-acetylglucosamine--peptide N-acetylglucosaminyltransferase 110 kDa subunit (OGT, Homo sapiens, UniProt O15294)", "observed": "phage display binding", "method": "phage display panning NGS", "form": "peptide", "notes": "panning round 3", "reference": "OGT-panned over input library", "Residues (O15294 1-1046)": "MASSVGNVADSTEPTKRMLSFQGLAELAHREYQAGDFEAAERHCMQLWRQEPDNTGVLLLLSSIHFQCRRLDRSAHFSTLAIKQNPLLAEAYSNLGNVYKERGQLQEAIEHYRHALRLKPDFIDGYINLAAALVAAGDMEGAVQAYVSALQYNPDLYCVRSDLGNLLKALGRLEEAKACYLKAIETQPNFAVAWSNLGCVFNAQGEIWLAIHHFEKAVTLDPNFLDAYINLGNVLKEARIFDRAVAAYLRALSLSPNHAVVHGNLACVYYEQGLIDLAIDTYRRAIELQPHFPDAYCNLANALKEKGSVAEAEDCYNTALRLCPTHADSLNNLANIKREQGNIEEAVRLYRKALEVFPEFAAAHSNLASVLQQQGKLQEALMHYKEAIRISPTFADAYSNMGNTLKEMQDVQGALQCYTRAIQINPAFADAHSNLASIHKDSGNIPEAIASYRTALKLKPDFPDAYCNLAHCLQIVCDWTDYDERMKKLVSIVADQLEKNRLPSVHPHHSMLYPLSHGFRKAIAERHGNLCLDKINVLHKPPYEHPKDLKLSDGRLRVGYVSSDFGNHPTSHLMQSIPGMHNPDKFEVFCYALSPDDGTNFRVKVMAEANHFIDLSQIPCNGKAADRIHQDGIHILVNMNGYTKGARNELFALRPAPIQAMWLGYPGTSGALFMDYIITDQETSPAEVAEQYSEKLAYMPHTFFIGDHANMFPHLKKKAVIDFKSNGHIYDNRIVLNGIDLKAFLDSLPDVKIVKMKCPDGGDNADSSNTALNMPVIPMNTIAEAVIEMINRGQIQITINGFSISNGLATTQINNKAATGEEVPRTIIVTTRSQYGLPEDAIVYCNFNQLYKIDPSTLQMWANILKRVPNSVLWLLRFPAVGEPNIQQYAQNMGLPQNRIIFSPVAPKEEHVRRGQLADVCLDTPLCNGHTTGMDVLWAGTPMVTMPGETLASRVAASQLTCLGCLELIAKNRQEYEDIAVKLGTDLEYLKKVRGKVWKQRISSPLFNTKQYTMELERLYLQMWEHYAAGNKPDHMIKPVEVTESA"}
{"Sequence": "QSDFLPKYQLDLFSY", "fold enrichment": 3.55}
{"Sequence": "GHDSYMPFYQISLFR", "fold enrichment": 2.6}
{"Sequence": "MQEYSPGYQIQFSKP", "fold enrichment": 2.53}
{"Sequence": "QLFPPVYIMKLDSQ", "fold enrichment": 3.87}
{"Sequence": "NDMFAPKYQLTWREF", "fold enrichment": 4.61}
{"Sequence": "YFEPKYEISFKYPHD", "fold enrichment": 2.32}
{"Sequence": "AFSPFFPVYSIEIRR", "fold enrichment": 2.79}
{"Sequence": "VGMNQNAYMPMYQIH", "fold enrichment": 2.45}
{"data": "Single results of other studies"}
{"SMILES": "O=C1NC(=O)N(c2ccc(Br)cc2)C(=O)C1=Cc1ccc(-c2ccccc2C(=O)O)o1", "observed": "AlphaScreen signal", "method": "AlphaScreen counter screen", "medium": "His6 peptide without bromodomain", "tested at": "50 µM", "notes": "assay interference check", "quantity": "inhibition", "value": "-0.45%"}
